# Published values of several laboratories.
# Each numbered part is a random draw from the data of one study; scales do not carry over between parts. Substitutions count along the parent as printed.

# Series 1
# Target: CCNB1, cyclin fold, Cln2 fusion (human)
# Technique: yeast growth competition, sequencing
# Sample: yeast
# Notes: weak parent motif
# Relative to: not given
# Direction: higher = stronger binding
# Parent: SCAPER docking peptide (human); SNARRSLNFGGST
Variant,normalised enrichment score
A3M,0.606
N2T,0.45
G11V,0.533
G11Q,0.201
A3F,0.721
R4W,0.0444
G11K,1.31
S1E,-0.431
F9Y,0.401

# Series 2
# Target: Sal-like protein 4, full length isoform A (SALL4, Homo sapiens, UniProt Q9UJQ4, residues 1-1053)
# Sequence of UniProt Q9UJQ4 (whole entry, looked up): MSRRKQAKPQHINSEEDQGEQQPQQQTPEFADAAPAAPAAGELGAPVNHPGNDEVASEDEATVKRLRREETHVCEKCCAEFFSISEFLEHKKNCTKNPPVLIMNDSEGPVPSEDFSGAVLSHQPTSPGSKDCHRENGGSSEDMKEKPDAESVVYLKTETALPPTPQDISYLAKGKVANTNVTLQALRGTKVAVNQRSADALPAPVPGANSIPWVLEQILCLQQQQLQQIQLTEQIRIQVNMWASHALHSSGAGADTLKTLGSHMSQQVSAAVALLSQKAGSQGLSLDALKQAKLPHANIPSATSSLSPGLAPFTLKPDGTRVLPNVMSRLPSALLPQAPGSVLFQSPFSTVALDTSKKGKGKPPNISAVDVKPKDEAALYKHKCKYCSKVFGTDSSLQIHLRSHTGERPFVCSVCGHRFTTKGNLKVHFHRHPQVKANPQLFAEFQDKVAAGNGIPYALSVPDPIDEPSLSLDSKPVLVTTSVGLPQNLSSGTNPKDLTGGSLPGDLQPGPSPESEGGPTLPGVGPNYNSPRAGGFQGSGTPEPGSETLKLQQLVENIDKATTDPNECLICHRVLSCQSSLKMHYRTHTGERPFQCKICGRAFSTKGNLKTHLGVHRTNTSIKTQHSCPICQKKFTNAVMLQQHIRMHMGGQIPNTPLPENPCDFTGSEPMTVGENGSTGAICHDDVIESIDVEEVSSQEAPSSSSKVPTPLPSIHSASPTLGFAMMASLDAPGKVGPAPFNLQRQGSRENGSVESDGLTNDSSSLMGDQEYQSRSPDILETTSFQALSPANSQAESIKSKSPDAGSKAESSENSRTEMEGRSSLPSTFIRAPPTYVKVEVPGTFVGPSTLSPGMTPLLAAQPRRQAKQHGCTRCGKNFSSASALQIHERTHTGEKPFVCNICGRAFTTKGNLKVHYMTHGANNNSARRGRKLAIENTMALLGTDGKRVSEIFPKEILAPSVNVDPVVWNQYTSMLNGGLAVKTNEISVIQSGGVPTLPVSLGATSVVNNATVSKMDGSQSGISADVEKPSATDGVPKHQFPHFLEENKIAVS
# Technique: universal PBM
# Molecule type: double-stranded DNA, one strand shown
# Sample: in vitro
# Tested at: 600 nM
# Notes: 8-mer, flanks averaged, mean of replicates
# Direction: higher = stronger binding
Sequence,E-score
ACTGACGG,-0.168
GCCTAGAA,-0.0518
GACTCGGA,-0.277
CTAGTCCC,-0.181
GGGTCCTA,-0.171
ATAGAGTG,0.0341
CCAAGGGC,-0.204

# Series 3
# Target: Phosphate system positive regulatory protein PHO4, full length, GST-tagged (PHO4, Saccharomyces cerevisiae, UniProt P07270, residues 1-312)
# Technique: competition protein-binding microarray
# Molecule type: double-stranded DNA, one strand shown
# Sample: in vitro
# Tested at: 2 µM
# Notes: whole 60-bp probe, lowest competitor level
# With: Cbf1 competitor, 0.05 µM
# Direction: higher = stronger binding
# Shared flanks, not repeated: … GTCTTGATTCGCTTGACGCTGCTG
# Construct (chain): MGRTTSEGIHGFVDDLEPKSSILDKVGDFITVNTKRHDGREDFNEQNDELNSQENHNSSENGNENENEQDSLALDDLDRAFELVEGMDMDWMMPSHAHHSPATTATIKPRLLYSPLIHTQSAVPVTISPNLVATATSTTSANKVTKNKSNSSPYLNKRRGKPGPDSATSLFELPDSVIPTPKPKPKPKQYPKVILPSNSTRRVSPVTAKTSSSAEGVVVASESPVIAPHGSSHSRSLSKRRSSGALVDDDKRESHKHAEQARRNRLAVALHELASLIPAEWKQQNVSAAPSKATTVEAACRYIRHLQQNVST
Sequence,fluorescence intensity [a.u.]
CTAATAGCGTCGTTGGTCGTGACGGCGTTTACTGCA,5410
AAATTACTAAGTTTTCACGTGCGGTACCCCGTATGA,14300
GTCTTGTCTCATTGCATGGTGGGTGTCCCCACTTCA,5900
TGCGCAACAACTTGCCCTGTGGGTGTATGTCTAGAA,5450
TCTGAGGGACAATGGCGCGTGATGGGCCAGAGACAT,7840
GTCTTGTCTCATTGTAGGGTGGGTGTCCCCACTTCA,4260
CGGGGTTAAGTTTGCGAAGTGGGTGGCTTGCAGCAG,4900
GGCAAATATAACGGCCACGTGCCGAGGGGTTTCTCT,15000
GTCTTGTCTCATTGGCCAGTGGGTGTCCCCACTTCA,3640
ACTCCATATCCTTATCATGTGCCGTAGTACATTGTG,11600

# Other studies, line by line
Molecule,target,test,test system,setting,scale,measurement,result
"PhoQ, residues 284 288 289 292 302 303 QWQEDG","PhoP, residues 12 14 15 18 19 NHTVL (Escherichia coli, UniProt P23836)","Sort-seq, item: YFP reporter",E. coli,"PhoQ-PhoP variant library, with: 10 µM Mg2+","relative to: high Mg2+ state, higher = stronger signaling",fold induction,0.916

# Some of these lines once more (series 3):
Sequence,fluorescence intensity [a.u.]
GTCTTGTCTCATTGGCCAGTGGGTGTCCCCACTTCA,3640
ACTCCATATCCTTATCATGTGCCGTAGTACATTGTG,11600
